Experimental data pooled from the literature.
Values joined by “and” are separate records of one study, mostly repeats; a detail may differ. Numbers after ± are the reported error.
HSD3B1: 3 beta-hydroxysteroid dehydrogenase/Delta 5-->4-isomerase type 1 (HSD3B1, Homo sapiens, UniProt P14060)
UniProt P14060, sequence (whole entry, looked up): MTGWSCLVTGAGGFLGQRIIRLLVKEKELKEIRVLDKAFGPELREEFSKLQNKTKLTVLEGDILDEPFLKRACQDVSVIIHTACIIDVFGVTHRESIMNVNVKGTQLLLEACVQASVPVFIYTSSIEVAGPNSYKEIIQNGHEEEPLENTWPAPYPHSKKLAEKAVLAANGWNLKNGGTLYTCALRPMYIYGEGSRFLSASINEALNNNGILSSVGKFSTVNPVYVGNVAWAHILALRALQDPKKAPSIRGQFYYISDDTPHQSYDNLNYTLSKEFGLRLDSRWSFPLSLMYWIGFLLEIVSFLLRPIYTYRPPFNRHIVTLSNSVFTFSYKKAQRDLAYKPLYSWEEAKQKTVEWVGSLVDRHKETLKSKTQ
MAPT: Microtubule-associated protein tau (MAPT, Homo sapiens, UniProt P10636)
ADRA1A: Alpha-1A adrenergic receptor (ADRA1A, Homo sapiens, UniProt P35348)
UniProt P35348, sequence (whole entry, looked up): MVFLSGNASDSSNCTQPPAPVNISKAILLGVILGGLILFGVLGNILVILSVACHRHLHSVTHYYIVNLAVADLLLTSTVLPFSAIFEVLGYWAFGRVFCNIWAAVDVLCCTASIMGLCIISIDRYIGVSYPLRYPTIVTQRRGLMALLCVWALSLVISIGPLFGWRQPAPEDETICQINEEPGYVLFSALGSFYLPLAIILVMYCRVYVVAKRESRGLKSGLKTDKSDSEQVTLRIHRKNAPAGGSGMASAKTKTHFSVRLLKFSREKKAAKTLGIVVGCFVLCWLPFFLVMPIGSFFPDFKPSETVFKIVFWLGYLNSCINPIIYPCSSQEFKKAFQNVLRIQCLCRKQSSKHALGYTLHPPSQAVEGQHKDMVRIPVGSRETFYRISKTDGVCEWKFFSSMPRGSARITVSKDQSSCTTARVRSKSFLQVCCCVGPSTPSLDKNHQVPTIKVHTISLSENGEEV
CASP8: Caspase-8 (CASP8, Homo sapiens, UniProt Q14790)
UniProt Q14790, sequence (whole entry, looked up): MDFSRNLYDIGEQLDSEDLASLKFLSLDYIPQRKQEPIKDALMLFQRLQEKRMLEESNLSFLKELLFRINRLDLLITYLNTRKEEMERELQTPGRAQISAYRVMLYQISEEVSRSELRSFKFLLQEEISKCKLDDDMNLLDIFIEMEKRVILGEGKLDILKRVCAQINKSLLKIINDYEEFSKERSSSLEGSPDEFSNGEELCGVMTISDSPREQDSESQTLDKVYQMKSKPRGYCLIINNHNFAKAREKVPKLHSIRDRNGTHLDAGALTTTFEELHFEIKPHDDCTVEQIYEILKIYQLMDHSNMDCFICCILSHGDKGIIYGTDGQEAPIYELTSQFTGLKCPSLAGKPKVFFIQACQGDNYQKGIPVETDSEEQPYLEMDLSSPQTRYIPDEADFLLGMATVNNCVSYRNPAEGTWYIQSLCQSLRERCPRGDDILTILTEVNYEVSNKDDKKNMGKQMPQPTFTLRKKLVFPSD
CASP10: Caspase-10 (CASP10, Homo sapiens, UniProt Q92851)
UniProt P46089, sequence (whole entry, looked up): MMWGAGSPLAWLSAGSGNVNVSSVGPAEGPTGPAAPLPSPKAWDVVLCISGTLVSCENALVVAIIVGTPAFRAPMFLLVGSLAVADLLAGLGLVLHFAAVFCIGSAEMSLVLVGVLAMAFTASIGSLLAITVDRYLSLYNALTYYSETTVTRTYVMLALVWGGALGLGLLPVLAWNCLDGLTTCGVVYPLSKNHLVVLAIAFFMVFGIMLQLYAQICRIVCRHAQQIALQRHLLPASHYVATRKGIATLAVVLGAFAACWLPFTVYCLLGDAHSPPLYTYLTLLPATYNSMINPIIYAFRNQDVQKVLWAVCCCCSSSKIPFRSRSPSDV
UniProt P45983, sequence (whole entry, looked up): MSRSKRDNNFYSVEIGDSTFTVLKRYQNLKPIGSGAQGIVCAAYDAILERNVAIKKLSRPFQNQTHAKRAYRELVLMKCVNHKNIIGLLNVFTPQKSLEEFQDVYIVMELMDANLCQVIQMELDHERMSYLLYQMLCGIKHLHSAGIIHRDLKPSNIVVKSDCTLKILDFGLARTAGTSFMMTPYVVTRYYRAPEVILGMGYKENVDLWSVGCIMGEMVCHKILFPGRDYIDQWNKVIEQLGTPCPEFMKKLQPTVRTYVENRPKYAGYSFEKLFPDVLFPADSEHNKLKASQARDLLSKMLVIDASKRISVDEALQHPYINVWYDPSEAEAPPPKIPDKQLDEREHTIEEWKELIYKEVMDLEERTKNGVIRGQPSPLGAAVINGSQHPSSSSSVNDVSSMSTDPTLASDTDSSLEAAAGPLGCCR
UniProt Q92851, sequence (whole entry, looked up): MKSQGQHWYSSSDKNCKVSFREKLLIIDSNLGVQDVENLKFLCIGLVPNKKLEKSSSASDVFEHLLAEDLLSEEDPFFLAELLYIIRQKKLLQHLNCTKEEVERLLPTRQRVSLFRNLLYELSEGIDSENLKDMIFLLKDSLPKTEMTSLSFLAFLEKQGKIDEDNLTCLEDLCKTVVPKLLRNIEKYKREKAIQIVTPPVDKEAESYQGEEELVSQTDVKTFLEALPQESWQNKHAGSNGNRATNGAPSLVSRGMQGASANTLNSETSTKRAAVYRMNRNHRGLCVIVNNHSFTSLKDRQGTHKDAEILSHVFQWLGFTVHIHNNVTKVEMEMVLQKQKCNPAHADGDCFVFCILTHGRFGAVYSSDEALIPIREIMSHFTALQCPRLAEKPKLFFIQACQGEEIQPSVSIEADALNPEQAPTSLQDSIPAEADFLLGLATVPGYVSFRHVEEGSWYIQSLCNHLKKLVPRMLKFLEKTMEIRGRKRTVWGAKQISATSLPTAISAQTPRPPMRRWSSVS
UniProt Q92633, sequence (whole entry, unmodified, looked up): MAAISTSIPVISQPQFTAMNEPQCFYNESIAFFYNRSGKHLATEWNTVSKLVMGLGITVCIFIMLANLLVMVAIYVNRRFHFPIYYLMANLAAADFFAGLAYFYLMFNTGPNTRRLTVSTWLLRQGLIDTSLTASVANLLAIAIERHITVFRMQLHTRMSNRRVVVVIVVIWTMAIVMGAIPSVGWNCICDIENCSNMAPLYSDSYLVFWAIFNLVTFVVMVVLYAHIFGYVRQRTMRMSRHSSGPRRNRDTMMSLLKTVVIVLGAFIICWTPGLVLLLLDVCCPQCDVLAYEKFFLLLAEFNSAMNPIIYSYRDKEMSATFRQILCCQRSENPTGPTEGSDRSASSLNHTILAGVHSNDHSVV
UniProt Q9NY33, sequence (whole entry, looked up): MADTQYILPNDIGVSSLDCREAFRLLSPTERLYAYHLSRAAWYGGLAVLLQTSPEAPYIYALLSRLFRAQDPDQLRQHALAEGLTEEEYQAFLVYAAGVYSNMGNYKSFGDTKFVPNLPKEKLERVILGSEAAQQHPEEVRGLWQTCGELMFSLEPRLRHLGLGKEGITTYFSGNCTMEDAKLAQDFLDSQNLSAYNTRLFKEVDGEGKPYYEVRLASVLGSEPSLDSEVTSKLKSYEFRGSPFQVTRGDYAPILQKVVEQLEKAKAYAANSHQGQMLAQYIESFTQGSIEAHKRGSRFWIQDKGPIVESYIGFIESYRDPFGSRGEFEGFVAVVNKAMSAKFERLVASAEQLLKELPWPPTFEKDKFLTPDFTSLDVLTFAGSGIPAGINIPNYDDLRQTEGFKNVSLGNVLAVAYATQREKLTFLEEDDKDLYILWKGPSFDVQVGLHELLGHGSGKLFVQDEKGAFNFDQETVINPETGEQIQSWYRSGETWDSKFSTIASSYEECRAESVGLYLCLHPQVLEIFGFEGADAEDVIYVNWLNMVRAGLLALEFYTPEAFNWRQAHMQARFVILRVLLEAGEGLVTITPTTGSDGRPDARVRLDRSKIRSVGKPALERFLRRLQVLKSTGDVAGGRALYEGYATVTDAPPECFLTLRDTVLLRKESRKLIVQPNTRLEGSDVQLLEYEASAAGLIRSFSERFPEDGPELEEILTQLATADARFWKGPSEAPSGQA
UniProt P35821, sequence (whole entry, looked up): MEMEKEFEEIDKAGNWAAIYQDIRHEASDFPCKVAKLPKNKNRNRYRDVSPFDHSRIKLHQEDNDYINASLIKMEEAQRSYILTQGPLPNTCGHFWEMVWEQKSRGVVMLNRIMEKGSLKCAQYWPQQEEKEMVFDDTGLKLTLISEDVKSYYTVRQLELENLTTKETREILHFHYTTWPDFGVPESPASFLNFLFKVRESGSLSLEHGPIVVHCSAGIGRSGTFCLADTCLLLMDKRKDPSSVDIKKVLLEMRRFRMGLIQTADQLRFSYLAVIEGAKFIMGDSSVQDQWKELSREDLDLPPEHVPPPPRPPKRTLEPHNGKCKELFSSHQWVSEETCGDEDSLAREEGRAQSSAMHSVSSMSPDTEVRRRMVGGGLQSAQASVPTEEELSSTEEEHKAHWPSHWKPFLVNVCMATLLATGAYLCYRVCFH
UniProt Q8TB45, sequence (whole entry, looked up): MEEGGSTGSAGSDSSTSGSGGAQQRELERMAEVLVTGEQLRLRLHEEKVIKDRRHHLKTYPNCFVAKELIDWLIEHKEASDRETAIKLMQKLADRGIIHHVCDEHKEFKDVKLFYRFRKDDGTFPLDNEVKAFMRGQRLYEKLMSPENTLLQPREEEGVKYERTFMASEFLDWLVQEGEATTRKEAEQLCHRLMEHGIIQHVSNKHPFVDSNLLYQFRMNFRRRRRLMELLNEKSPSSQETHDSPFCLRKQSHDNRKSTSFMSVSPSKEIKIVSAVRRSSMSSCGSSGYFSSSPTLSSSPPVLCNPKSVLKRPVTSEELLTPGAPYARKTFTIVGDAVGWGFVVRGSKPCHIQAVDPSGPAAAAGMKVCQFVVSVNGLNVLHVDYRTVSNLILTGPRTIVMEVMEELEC
UniProt Q9UQ07, sequence (whole entry, looked up): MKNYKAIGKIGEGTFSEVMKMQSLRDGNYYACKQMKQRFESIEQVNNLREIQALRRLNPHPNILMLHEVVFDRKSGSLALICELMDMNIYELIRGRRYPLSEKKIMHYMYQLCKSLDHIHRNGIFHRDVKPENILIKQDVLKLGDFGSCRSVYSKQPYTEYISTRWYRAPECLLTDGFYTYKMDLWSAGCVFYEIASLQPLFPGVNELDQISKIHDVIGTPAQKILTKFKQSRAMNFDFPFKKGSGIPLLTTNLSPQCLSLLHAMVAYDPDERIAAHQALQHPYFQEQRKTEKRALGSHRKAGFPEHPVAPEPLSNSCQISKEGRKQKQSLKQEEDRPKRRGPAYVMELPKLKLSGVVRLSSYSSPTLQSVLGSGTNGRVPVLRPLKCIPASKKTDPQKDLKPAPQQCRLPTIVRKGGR

COC1CN([C@H]2CC[C@H]([C@@]3(C)Oc4c(Cl)cc(C(=O)NCc5c(SC)cc(C)[nH]c5=O)c(C)c4O3)CC2)C1 — log2 fold change (RNA-seq, item: SEPTIN8 mouse homolog; mouse, HT-1376 xenograft, whole blood; dose not given; baseline: vehicle): 0.451
O=c1c(-c2ccc(CO)cc2)coc2cc(O)ccc12 — DHEA metabolism (HSD3B1; [3H]-DHEA conversion; LNCaP; 0.1 µM, normalized to protein, unit not given; baseline: vehicle): 0.9
CC[C@H](C)[C@H](NC(=O)[C@@H](NC(=O)[C@H](CCCCN)NC(=O)[C@@H](N)[C@@H](C)O)C(C)C)C(=O)N[C@@H](CC(C)C)C(=O)N[C@@H](Cc1c[nH]cn1)C(N)=O — ThT fluorescence (MAPT; fibril formation, ThT fluorescence; 1-fold of tau, at plateau, with: wild-type tau 10 µM, heparin; baseline: untreated): 133 ± 15%
C[n+]1cn(C2OC(COP(=O)(O)OP(=O)([O-])C(Cl)(Cl)P(=O)(O)O)C(O)C2O)c2nc(N)nc(O)c21 (centres unmarked) — hydrolysis (DCPS (Homo sapiens, UniProt Q96C86); substrate, HPLC; concentration not given, 120 min): 1.7 ± 0.7%
CN1CCCNC(=O)c2cccc(c2)C(=O)NCCCN(C)CCCNc2cccc3c2C(=O)c2cccc(c2C3=O)NCCC1 — log2 fold change (SAS; RNA-Seq, item: SMYD4 mRNA; 1 µM, 6 h; baseline: untreated cells): 0.916
CC(C)C1=CC23CCC4C(C)(C(=O)O)CCCC4(C)C2CC1C(C(=O)O)C3C(=O)O (centres unmarked) — maximum anisotropy change (Replication protein A 70 kDa DNA-binding subunit, DBD-F (RPA1, Homo sapiens, UniProt P27694); probe displacement, fluorescence anisotropy competition; 14 µM, with: X-rhodamine-labelled probe peptide 300 nM): 45%
Cc1cc(NC(=O)[C@H](O)c2cc(F)cc(F)c2)ccc1-c1cnc(N)c(C(=O)NC(C)C)c1 — remaining binding (MAP3K3 (Homo sapiens, UniProt Q99759); binding, competition with immobilised ligand; 1 µM): 88%
O=c1cc(NCc2ccco2)c2ccccc2o1 — agonist activity (ADRA1A; intracellular Ca2+ mobilization, agonist; COS-7; 500 µM; baseline: 3 µM ionomycin): 0.5 ± 0.11%
CCN(CC)C(CO)c1cccc2c(C)c(C)oc12 (centres unmarked) — fold change (LPAR1 (Homo sapiens, UniProt Q92633, W271A); G-protein dissociation, agonist, NanoBiT; HEK-293T; 1 nM, W271A mutant; baseline: baseline luminescence): 1.01 and 1.03 and 0.995 and 1.04
N[C@H]1CC[C@H](Nc2nccc(-c3cccnc3Oc3ccc(NC(=O)NC4CC4)c4ccccc34)n2)CC1 — log2 LFQ intensity (Small ribosomal subunit protein uS3 (Homo sapiens, UniProt P23396); kinobead competition pulldown, item: RPS3; HEK293/HCT116 lysate mixture; 10 µM, 1 h, 4 °C; lower = stronger competition): 23.9 and 23.5
CNC(=O)C[C@H](Cc1ccc(C#N)cc1)NC(=O)c1cc(-c2ccc(CN[C@H](C)c3ccc(C)cc3)o2)ccc1Cl — activity vs control (MOK (Homo sapiens, UniProt Q9UQ07); enzyme activity, inhibitor; 1 µM): 106%
CC(=O)N[C@H](C(=O)N[C@@H](CCCCN)C(=O)N[C@@H](CCC(N)=O)C(=O)N[C@@H](CC(=O)O)C(=O)COC(=O)c1c(C)cccc1C)C(C)C — kinact/KI (CASP8; enzyme activity, inhibitor): 162000 M⁻¹ s⁻¹
C=CC(=O)N1CCCC(n2c(=O)c3ncccc3n(Cc3ccc(Oc4ccccc4)cc3)c2=O)C1 (centres unmarked) — melting temperature (DPP3 (Homo sapiens, UniProt Q9NY33); thermal proteome profiling; cell proteome; treated): 52.5 °C and 52.6 °C
CNS(=O)(=O)Nc1nccc(Cc2c(C)c3ccc(Oc4ncccc4F)cc3oc2=O)c1F — IC50 (SW948; cell viability; 7 days): 13.4 nM
CNCc1ccc(-c2coc3cc(O)ccc3c2=O)cc1 — DHEA metabolism (HSD3B1; [3H]-DHEA conversion; LNCaP; 0.1 µM, normalized to protein, unit not given; baseline: vehicle): 0
C=CC(=O)N1CC2(CCN(c3nc(OC4CCN(CCCOC)CC4)nc4c(OCC(F)(F)F)c(-c5c(C)ccc6[nH]ncc56)c(C5CC5)cc34)CC2)C1 — dissociation rate constant koff (GTPase KRas, GDP-bound (KRAS, Homo sapiens, UniProt P01116, Q61H); SPR): 0.0433 ± 0.0006 s⁻¹
CC(C)Oc1cc(Cl)ccc1CNc1cc(-c2ccccc2)nc2ncnn12 — cAMP luminescence (GPR3 (Homo sapiens, UniProt P46089); cAMP reporter; human cells; 3 µM; higher is more cAMP): 3590 a.u. and 5440 a.u. and 2200 a.u. and 4180 a.u. and 6570 a.u. and 6940 a.u. and 3530 a.u.
CC(=O)N[C@@H](CC(=O)O)C(=O)N[C@@H](CC(C)C)C(=O)N[C@H](C(=O)N[C@@H](C)C(=O)N[C@@H](CC(=O)O)C(=O)COC(=O)c1c(C)cccc1C)[C@@H](C)O — kinact/KI (CASP8; enzyme activity, inhibitor): 210000 M⁻¹ s⁻¹
Cc1cc(C)c2c(Cn3ccnc3)cc(=O)oc2c1 — agonist activity (ADRA1A; calcium mobilization, agonist; COS-7; 500 µM; baseline: 3 µM ionomycin): 1.79 ± 1.12%
CCOC(=O)C1CC(C)C2C=CC3CCN(C(=O)C4CCC5C=CC6(CCCN6C(=O)C(Cc6ccccc6Cl)NC(C)=O)C(=O)N54)C3C(=O)N12 (centres unmarked) — ligand efficiency (Ena/VASP-like protein, EVH1 domain (EVL, Homo sapiens, UniProt Q9UI08); isothermal titration calorimetry): -690 J/(mol·heavy atom)
CCCCCC=CC=C1C(=O)C=CC1CC=CCCCC(=O)O (centres unmarked) — isoTOP-ABPP competition ratio (DEP domain-containing mTOR-interacting protein (Homo sapiens, UniProt Q8TB45); competitive isoTOP-ABPP; Ramos soluble proteome; 100 µM, 60 min, with: iodoacetamide probe; baseline: DMSO over compound-treated, higher = stronger cysteine blockade): 6.9
CC(=O)N[C@@H](CC(=O)O)C(=O)N[C@@H](CCC(=O)O)C(=O)N[C@H](C(=O)N[C@@H](CC(=O)O)C(=O)COC(=O)c1c(C)cccc1C)[C@@H](C)OCc1ccccc1 — kinact/KI (CASP8; enzyme activity, inhibitor): 886000 M⁻¹ s⁻¹
CCN(CC)C(=O)c1ccc(O)c(OC)c1 — bound ligand fraction (Heat shock protein HSP 90-alpha, N-terminal domain (HSP90AA1, Homo sapiens, UniProt P07900); binding, ligand-observed NMR titration; 9.59 µM, ligand to protein ratio 707): 0.13
O=C1c2sc(-c3ccc(N4CCC(CO)CC4)nc3F)nc2CCN1c1cccnc1 — inhibition (Htr1d (Rattus norvegicus, UniProt P28565); ligand displacement, radioligand; 1 µM): -13%
O=C(N[C@@H](Cc1ccc(OCCCCC2CCNCC2)cc1)C(=O)O)c1nc2ccccc2o1.O=C(O)C(F)(F)F — fibrinogen binding MFI (Integrin alpha-IIb/beta-3 (Homo sapiens, UniProt P05106+P08514); inhibitor, flow cytometry; washed platelets, human; 360 nM, 30 min, room temperature, with: ADP 20 µM, Alexa647-fibrinogen; higher = more binding): 67000 a.u.
Cc1ncsc1-c1ccc(C(C)NC(=O)C2CC(O)CN2C(=O)C(NC(=O)CCCCCCCCCCN2CCCC(Nc3ncc(Cl)c(Nc4ccccc4S(=O)(=O)C(C)C)n3)C2)C(C)(C)C)cc1 (centres unmarked) — log2 fold change (22Rv1; RNA-seq, item: ZNF334 mRNA; concentration not given; baseline: DMSO): -3.16
CCCCCC(O)/C=C/C=O (centres unmarked) — isoTOP-ABPP competition ratio (Mannose-1-phosphate guanylyltransferase regulatory subunit alpha (GMPPA, Homo sapiens, UniProt Q96IJ6); competitive isoTOP-ABPP, item: GMPPA cysteine peptide; Ramos soluble proteome; 100 µM, with: iodoacetamide probe; baseline: DMSO over compound-treated, higher = stronger cysteine blockade): 1.3
CC[C@H](C)[C@@H]1NC(=O)[C@H](Cc2ccccc2)NC(=O)[C@H](CCC(=O)O)NC(=O)[C@H](CCCNC(=N)N)NC(=O)CNC(=O)[C@@H](NC(=O)[C@H](CC(C)C)NC(=O)[C@H](CCCNC(=N)N)NC(=O)[C@@H](NC(=O)CNC(=O)[C@H](Cc2ccc(O)cc2)NC(=O)[C@@H]2CCCN2C(=O)[C@H](C)NC(=O)[C@H](C)NC(=O)[C@@H](N)CCCNC(=N)N)C(C)C)CSSC[C@@H]2NC(=O)[C@@H](NC(=O)[C@H](CO)NC(=O)[C@H](CO)NC(=O)[C@H](CO)NC(=O)[C@H](CC(C)C)NC(=O)CNC(=O)[C@H](C)NC(=O)[C@H](CC(C)C)NC(=O)[C@@H](NC(=O)[C@@H](N)CC(=O)O)C(C)C)CSSC[C@H](NC(=O)CNC(=O)[C@H](Cc3c[nH]c4ccccc34)NC(=O)[C@H](CCCCN)NC2=O)C(=O)N[C@@H](CO)C(=O)N[C@@H](CCCCN)C(=O)N[C@@H](CO)C(=O)N[C@@H](CCC(=O)O)C(=O)N[C@@H]([C@@H](C)CC)C(=O)N[C@@H](CO)C(=O)N[C@@H](CO)C(=O)N[C@@H](CC(C)C)C(=O)N[C@H](C(=O)O)CSSC[C@@H](C(=O)NCC(=O)NCC(=O)N[C@@H](CO)C(=O)N[C@@H](CCCNC(=N)N)C(=O)N[C@@H](Cc2c[nH]c3ccccc23)C(=O)O)NC(=O)[C@H]([C@@H](C)O)NC(=O)[C@H](Cc2ccccc2)NC(=O)[C@H]([C@@H](C)CC)NC(=O)[C@H](C(C)C)NC(=O)[C@H](C)NC(=O)[C@H](CCCNC(=N)N)NC1=O — Emax (RXFP3 (Homo sapiens, UniProt Q9NSD7, L248A); HEK-293T; baseline: wild type): 64.8 ± 6.43%
CC(=O)N[C@@H](Cc1c[nH]c2ccccc12)C(=O)N[C@@H](CCC(=O)O)C(=O)N[C@@H](C)C(=O)N[C@@H](CC(=O)O)C(=O)COC(=O)c1c(C)cccc1C — kinact/KI (CASP10; enzyme activity, inhibitor): 301000 M⁻¹ s⁻¹
CC[C@H](C)[C@H](NC(=O)[C@@H](NC(=O)[C@@H](NC(=O)[C@@H](NC(=O)[C@H](CCCCN)NC(=O)[C@H](CCC(=O)O)NC(=O)[C@H](C)N)C(C)C)C(C)C)C(C)C)C(=O)N[C@H](C(=O)N[C@@H](CCCCN)C(N)=O)[C@@H](C)O — ThT fluorescence (MAPT; fibril formation, ThT fluorescence; 5-fold of tau, at plateau, with: wild-type tau 10 µM, heparin; baseline: untreated): 107 ± 57%
CC(=O)N[C@@H](CCC(C)C)C(=O)N[C@H](C(=O)N[C@@H](CO)C(=O)N[C@@H](CC(=O)O)C(=O)COC(=O)c1c(C)cccc1C)C(C)(C)C — kinact/KI (CASP8; enzyme activity, inhibitor): 42000 M⁻¹ s⁻¹
COc1ccc(C(=O)c2c(C(=O)NCCCN(C)C)oc3ccc(Cl)cc3c2=O)cc1OC — Emax (net BRET) (GHSR (Homo sapiens, UniProt Q92847); endosomal trafficking, agonist, bystander BRET 2xFYVE-Venus; 60 min, unit not given; baseline: baseline): 0.036 ± 0.008
CC[C@H](NC(=O)[C@H](CC(C)C)NC(C)=O)C(=O)N[C@@H](CCC1CCCCC1)C(=O)N[C@@H](CC(=O)O)C(=O)COC(=O)c1c(C)cccc1C — kinact/KI (CASP10; enzyme activity, inhibitor): 148000 M⁻¹ s⁻¹
CN1CCN(Cc2ccc(NC(=O)c3cccc(C#Cc4cnc(N)c5ncccc45)c3)cc2C(F)(F)F)CC1 — remaining binding (MAP3K4 (Homo sapiens, UniProt Q9Y6R4); cell-free assay, competition with immobilised ligand; 50 nM): 100%
CC(=O)NCCCC[C@H](NC(C)=O)C(=O)N[C@@H](CCCC(=O)O)C(=O)N[C@@H](C)C(=O)N[C@@H](CC(=O)O)C(=O)COC(=O)c1c(C)cccc1C — kinact/KI (CASP8; enzyme activity, inhibitor): 990000 M⁻¹ s⁻¹
C#CCOC(=O)[C@]1(C)C=C(C(=O)OC(C)(C)C)C(=O)CC1 — normalized kinase activity (MAPK8 (Homo sapiens, UniProt P45983); enzyme activity, D-SENSOR; 133.3 µM, single replicate): 0.258 and 0.308 and 0.279
CC(=O)N[C@H](C(=O)N[C@@H](CCC(=O)O)C(=O)N[C@@H](CCCCN(C)C)C(=O)N[C@@H](CC(=O)O)C(=O)COC(=O)c1c(C)cccc1C)C(C)C — kinact/KI (CASP10; enzyme activity, inhibitor): 63900 M⁻¹ s⁻¹
CC1(C)C[C@@H](Nc2cccc(-c3sc(C(=O)O)c(OCC(=O)O)c3Cl)c2)CCN1S(=O)(=O)Cc1cccc(NC(=O)CN2CCC(c3ccc4c(c3)oc(=O)n4C3CCC(=O)NC3=O)CC2)c1 (some centres unmarked) — remaining protein (Tyrosine-protein phosphatase non-receptor type 1 (Mus musculus, UniProt P35821); degrader, Western blot; B16-F10; 1 µM): 11.4% and 9.5%
